Measurements gathered from unrelated publications.
Every numbered part comes from another study and shows a few of its results, in no order.
Chain of UniProt Q01959 (whole entry, looked up): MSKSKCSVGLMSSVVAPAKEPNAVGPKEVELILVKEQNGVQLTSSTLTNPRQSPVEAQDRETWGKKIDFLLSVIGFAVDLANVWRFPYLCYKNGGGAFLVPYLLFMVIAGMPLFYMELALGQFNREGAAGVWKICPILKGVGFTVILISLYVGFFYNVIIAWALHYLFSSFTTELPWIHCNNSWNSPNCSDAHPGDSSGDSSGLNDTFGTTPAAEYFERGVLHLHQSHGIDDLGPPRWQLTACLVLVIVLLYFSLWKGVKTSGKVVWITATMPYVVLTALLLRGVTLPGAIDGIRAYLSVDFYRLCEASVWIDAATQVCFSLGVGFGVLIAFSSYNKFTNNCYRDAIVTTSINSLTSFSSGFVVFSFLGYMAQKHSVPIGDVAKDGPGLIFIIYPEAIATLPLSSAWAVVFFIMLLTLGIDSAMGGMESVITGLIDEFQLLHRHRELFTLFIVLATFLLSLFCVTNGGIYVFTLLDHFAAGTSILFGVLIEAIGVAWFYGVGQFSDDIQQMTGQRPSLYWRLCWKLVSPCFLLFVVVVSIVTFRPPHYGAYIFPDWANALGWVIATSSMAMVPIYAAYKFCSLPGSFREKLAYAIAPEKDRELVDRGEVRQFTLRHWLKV
Chain of UniProt P35372 (whole entry, looked up): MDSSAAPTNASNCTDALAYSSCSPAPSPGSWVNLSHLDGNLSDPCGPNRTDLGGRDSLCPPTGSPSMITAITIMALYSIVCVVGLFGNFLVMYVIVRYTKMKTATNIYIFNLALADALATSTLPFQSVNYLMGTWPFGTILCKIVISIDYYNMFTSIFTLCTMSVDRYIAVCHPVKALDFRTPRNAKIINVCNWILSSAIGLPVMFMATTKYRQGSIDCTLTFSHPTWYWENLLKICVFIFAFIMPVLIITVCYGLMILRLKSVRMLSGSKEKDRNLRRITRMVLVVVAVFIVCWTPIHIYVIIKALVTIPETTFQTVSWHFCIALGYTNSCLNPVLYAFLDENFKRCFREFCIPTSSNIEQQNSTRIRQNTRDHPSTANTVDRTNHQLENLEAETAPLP
Chain of UniProt P41145 (whole entry, looked up): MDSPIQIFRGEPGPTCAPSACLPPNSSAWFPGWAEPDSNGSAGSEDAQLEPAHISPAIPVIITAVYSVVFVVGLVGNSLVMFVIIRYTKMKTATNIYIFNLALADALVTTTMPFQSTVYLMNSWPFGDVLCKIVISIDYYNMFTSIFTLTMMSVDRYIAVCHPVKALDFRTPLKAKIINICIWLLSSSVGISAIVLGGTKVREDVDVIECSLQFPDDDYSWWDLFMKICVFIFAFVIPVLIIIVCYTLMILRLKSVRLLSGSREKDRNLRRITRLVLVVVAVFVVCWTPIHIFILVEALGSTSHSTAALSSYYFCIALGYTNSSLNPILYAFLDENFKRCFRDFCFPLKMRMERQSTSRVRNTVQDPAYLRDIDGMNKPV
Chain of UniProt P20309 (whole entry, looked up): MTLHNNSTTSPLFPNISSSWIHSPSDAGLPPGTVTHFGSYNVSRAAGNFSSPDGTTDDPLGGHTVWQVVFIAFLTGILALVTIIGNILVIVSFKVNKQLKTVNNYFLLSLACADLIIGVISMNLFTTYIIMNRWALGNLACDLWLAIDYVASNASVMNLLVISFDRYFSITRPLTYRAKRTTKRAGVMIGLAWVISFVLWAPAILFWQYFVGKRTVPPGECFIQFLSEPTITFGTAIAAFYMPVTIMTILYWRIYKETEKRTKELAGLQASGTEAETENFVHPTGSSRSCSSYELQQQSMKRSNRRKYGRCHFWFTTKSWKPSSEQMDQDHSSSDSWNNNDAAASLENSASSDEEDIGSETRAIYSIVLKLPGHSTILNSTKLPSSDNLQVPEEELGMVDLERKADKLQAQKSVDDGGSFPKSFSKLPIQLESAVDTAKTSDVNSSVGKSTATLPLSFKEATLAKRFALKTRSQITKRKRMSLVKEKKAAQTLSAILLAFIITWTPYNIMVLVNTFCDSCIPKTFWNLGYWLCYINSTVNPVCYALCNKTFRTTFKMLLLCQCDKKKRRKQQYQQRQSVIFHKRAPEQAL

Series 1
Organism: Sarcocystis neurona
Effect on: parasite activity
Tested at: 10 µM
Time: 96 h
Quantity: activity class
SMILES = NC(=O)OCCCc1ccccc1; value = inactive
SMILES = O=C1Nc2ccc(Cl)cc2C(c2ccccc2Cl)=NC1O (stereo not shown); value = inactive
SMILES = O=C(O)CCCc1ccc(N(CCCl)CCCl)cc1; value = inactive
SMILES = CC[C@]1(O)CC[C@H]2[C@@H]3CCC4=CCCC[C@@H]4[C@H]3CC[C@@]21C; value = inactive
SMILES = O=c1c2ccccc2[se]n1-c1ccccc1; value = inactive
SMILES = C[N+]1(C)CCN(c2ccccc2)CC1; value = inactive

Series 2
SMILES: CNCc1ccccc1-c1csc([C@H](C)Nc2nc(C)nc3cc(OC)c(OC)cc23)c1
Effect on: binding
Method: radioligand binding
Tested at: 10 µM
Quantity: inhibition
target = CHRM3 (Homo sapiens, UniProt P20309); value = 48%
target = DRD5 (Homo sapiens, UniProt P21918); value = 36.6%
target = SLC6A3 (Homo sapiens, UniProt Q01959); value = 70.3%
target = SLC6A4 (Homo sapiens, UniProt P31645); value = 56.2%
target = SLC6A2 (Homo sapiens, UniProt P23975); value = 69.3%
target = OPRM1 (Homo sapiens, UniProt P35372); value = 67.3%
target = OPRK1 (Homo sapiens, UniProt P41145); value = 64.4%

Series 3
Target: Calcium/calmodulin-dependent protein kinase type II subunit alpha (CAMK2A, Homo sapiens, UniProt Q9UQM7)
Chain of UniProt Q9UQM7 (whole entry, looked up): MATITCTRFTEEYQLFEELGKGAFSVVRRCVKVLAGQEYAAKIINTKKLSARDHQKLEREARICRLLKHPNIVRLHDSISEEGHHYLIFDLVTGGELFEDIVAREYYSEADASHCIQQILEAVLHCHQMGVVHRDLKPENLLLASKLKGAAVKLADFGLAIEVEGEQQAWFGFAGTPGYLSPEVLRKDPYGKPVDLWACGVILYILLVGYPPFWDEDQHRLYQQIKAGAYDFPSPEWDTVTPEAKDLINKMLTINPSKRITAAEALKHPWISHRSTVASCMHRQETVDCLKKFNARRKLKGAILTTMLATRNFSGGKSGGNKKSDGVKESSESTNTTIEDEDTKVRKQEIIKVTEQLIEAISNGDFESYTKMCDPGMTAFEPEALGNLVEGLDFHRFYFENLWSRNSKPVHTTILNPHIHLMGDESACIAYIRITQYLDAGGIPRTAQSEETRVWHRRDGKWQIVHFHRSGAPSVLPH
Effect on: enzyme activity
Mode: inhibitor
Tested at: 10 µM
Quantity: inhibition
SMILES = CO[C@H]1C[C@H](O[C@H]2CC[C@]3(C)[C@H]4CC[C@]5(C)[C@@H](C6=CC(=O)OC6)CC[C@]5(O)[C@@H]4CC[C@]3(O)C2)O[C@H](C)[C@H]1O; value = 13%
SMILES = C#C[C@]1(OC(=O)CCCCCC)CC[C@H]2[C@@H]3CCC4=CC(=O)CC[C@@H]4[C@H]3CC[C@@]21C; value = -2%
SMILES = COc1c(O)cc2c3c1-c1ccccc1C[C@H]3N(C)CC2; value = -39%
SMILES = CCN1C[C@]2(COC)CC[C@H](OC)[C@]34C1[C@H](C[C@H]23)[C@@]1(O)C[C@H](OC)[C@H]2C[C@@H]4[C@@H]1[C@H]2O; value = -17%
SMILES = C/C=C(/C)C(=O)O[C@H]1[C@@H]2[C@H](C)C(=O)O[C@@H]2C[C@@H](C)[C@@H]2C=CC(=O)[C@]21C; value = -23%

Series 4
Target: DNA polymerase theta, ATPase domain (POLQ, Homo sapiens, UniProt O75417)
Chain of UniProt O75417 (whole entry, unmodified, looked up): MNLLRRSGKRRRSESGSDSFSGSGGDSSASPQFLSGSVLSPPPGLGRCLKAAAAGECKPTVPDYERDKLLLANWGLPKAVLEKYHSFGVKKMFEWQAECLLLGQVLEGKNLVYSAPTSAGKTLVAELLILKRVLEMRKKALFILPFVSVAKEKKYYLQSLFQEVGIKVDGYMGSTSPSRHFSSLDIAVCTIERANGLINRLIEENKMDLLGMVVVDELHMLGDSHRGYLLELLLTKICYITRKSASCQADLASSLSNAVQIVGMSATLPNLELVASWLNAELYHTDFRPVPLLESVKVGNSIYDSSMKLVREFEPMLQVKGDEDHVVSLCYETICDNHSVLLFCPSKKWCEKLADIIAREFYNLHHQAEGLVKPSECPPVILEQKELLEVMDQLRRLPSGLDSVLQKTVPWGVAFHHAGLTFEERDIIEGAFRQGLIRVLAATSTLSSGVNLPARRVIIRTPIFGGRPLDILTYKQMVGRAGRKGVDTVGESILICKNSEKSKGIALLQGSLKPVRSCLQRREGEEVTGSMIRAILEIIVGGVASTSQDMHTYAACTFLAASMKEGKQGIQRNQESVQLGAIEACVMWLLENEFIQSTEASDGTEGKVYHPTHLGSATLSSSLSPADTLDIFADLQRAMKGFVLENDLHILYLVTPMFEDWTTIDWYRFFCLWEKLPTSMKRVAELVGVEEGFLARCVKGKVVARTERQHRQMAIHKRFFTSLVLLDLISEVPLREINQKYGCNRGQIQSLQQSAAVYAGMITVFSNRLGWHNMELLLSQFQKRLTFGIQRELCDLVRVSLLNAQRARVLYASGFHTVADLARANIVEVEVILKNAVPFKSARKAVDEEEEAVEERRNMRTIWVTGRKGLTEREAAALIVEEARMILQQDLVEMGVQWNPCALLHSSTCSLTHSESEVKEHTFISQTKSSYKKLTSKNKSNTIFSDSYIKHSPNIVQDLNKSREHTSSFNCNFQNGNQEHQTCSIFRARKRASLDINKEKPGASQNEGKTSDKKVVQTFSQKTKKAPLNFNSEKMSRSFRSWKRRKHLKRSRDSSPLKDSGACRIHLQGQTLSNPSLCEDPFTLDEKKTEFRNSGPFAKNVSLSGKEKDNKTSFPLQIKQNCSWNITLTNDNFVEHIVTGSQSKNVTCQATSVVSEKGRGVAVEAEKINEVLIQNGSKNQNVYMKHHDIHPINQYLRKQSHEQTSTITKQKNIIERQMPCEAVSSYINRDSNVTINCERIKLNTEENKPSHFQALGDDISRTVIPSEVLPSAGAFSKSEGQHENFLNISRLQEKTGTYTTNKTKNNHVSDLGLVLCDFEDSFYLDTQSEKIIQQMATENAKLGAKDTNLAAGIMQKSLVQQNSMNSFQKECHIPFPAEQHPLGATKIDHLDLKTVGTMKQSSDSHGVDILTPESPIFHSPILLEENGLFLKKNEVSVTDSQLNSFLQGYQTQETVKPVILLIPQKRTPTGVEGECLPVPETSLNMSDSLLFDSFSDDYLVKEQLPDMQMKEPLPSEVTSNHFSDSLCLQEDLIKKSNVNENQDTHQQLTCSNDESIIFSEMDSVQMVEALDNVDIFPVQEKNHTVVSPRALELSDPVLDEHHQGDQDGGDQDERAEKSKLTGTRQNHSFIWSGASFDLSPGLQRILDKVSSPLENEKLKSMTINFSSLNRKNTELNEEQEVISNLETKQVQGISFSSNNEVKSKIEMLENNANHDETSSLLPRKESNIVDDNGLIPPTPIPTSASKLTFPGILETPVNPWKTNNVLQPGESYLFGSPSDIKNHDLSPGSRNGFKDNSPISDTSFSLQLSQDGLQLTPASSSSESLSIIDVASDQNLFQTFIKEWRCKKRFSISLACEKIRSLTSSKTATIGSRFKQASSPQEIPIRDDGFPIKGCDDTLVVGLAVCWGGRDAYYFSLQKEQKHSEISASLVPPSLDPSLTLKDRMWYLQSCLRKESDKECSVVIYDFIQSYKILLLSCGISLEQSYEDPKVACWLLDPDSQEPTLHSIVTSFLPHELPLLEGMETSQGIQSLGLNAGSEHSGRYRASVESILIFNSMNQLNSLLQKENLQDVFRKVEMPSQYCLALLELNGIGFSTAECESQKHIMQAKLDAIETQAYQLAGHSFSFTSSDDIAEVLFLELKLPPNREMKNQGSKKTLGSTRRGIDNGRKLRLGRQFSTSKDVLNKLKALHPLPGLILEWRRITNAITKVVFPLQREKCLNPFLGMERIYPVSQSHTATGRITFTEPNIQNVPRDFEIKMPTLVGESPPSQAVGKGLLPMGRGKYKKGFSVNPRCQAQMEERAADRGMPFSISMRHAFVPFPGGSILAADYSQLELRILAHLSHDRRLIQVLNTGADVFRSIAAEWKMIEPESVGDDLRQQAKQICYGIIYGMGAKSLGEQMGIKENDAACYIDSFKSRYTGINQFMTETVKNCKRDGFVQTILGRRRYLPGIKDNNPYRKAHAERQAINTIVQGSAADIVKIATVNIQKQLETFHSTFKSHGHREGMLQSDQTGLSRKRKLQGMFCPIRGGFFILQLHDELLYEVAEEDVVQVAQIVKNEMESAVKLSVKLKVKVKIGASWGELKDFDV
Effect on: enzyme activity
Mode: inhibitor
Tested at: 77 µM
Relative to: untreated
Quantity: remaining activity
SMILES = C[C@](O)(COc1ccc(C#N)cc1)C(=O)Nc1ccc(C#N)c(C(F)(F)F)c1; value = 104%
SMILES = CC(=O)Nc1ccc(OC[C@](C)(O)C(=O)Nc2ccc([N+](=O)[O-])c(C(F)(F)F)c2)cc1; value = 93.1%
SMILES = CCC1(c2cccc(O)c2)CCCCN(C)C1 (stereo not shown); value = 102%
SMILES = NC(Cc1cc(O)c(O)cc1O)C(=O)O (racemic); value = 81.5%

Some of these lines once more (series 3):
SMILES = C#C[C@]1(OC(=O)CCCCCC)CC[C@H]2[C@@H]3CCC4=CC(=O)CC[C@@H]4[C@H]3CC[C@@]21C; value = -2%
